Published values of several laboratories.
Parts stem from different laboratories: compare values within a part only. Positions count from the first letter of the parent shown.

Sample 1
Target: Ras GTPase-activating protein-binding protein 1, C-terminal RGG region (G3BP1, Homo sapiens, UniProt Q13283)
UniProt Q13283, sequence (whole entry, looked up): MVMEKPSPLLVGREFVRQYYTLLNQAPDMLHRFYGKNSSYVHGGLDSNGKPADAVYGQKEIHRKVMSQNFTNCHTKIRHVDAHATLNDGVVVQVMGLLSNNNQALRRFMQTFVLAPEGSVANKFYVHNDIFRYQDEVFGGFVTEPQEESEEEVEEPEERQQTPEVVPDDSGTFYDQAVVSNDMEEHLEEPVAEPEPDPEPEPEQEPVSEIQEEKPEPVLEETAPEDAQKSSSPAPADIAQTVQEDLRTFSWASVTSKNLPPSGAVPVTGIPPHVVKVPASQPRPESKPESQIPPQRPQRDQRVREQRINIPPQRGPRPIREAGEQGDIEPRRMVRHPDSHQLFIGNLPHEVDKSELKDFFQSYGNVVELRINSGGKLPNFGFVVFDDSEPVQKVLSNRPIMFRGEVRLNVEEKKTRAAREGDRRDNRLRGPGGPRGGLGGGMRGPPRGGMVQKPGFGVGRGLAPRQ
Method: RNA Bind-n-Seq
Molecule type: RNA
Matrix: in vitro
Concentration: 1 µM
Notes: whole 134-nt RNA, ends assumed
Added: 150 mM KCl
Reference: input library
Reading: higher = stronger binding
Shared flanks, not repeated: GGGAGUUCUACAGUCCGACGAUC … UGGAAUUCUCGGGUGUCAAGG
Oligonucleotide | log2 enrichment
CUGUGCUACACAUCGUAUGUACCGAAUCGGGGUUUUUUUGGGGUUUUUUUGGUUUUUUUGGAAAGUAUUAUGUUACGCCGUUCGGAUCUG | -1.31
CUCAAGUCCUGUGCUACACAUCGUAUGUACCGAAUCGGAAAAAGGAGGUUUGGAAAGUAUUAUGUUACGCCGUUCGGAUCUGCACUUCCA | -1.1
AGUCCUGUGCUACACAUCGUAUGUACCGAAUCGGGGUUUUUGGGGAGGGGAAAGGGGAAAGUAUUAUGUUACGCCGUUCGGAUCUGCACU | 2.58
CCUGUGCUACACAUCGUAUGUACCGAAUCGGGUUUUUUUGGGUUUUUGGGUUUUUUUGGGAAAGUAUUAUGUUACGCCGUUCGGAUCUGC | -1.47
GUCCUGUGCUACACAUCGUAUGUACCGAAUCGGGGAAAAAGGGGAAAAAGGGGAGGGGAAAGUAUUAUGUUACGCCGUUCGGAUCUGCAC | 1.79
CAAGUCCUGUGCUACACAUCGUAUGUACCGAAUCGGGAAAGGGAGGGUUUUUGGGAAAGUAUUAUGUUACGCCGUUCGGAUCUGCACUUC | 1.8
CCAACUCCUAUAAUUCCCUAUCUUUUAGUUUUAGUUGCAGAAACAUUUUGUGGUCAUUAAGCAUUGGGUGGGUAAAUUCAACCACUGUAA | -0.47
UCAAGUCCUGUGCUACACAUCGUAUGUACCGAAUCGGGGCGGGGCGGGGCGGGGAAAGUAUUAUGUUACGCCGUUCGGAUCUGCACUUCC | 2.68
UCACUUUAGAGGAGGAUCUGAUGGAUAUGGCAGUGGACGUGGAUUUGGGGAUGGCUAUAAUGGGUAUGGAGGAGGACCUGGAGGUGGCAA | -1.11

Sample 2
Target: Histone acetyltransferase KAT6A, winged helix 1, GST fusion (KAT6A, Homo sapiens, UniProt Q92794, residues 1-85)
Method: protein binding microarray
Molecule type: double-stranded DNA, one strand shown
Matrix: in vitro
Concentration: not given
Notes: 8-mer, flanks averaged, mean of 2 arrays, mostly near background
Reference: not given
Reading: higher = stronger binding
Construct (chain): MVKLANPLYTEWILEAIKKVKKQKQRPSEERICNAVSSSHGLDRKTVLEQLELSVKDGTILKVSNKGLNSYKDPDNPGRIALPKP
Oligonucleotide | E-score
CGTTTGGA | -0.0849
GGAGTAAC | 0.0938
AATGCTTG | -0.0773
TCGCTCCA | -0.00448
CACTAGTG | -0.101
AATTAGCA | -0.0538
GCTTTTTA | 0.0993
CGGAAGAC | 0.212
AAATGCCC | -0.13
CACGACGG | 0.269
AATCCAGC | -0.108

Sample 3
Target: CCNE1, cyclin fold, Cln2 fusion (human)
Method: yeast growth competition, sequencing
Matrix: yeast
Notes: strong parent motif
Reference: not given
Reading: higher = stronger binding
Starting sequence: E2F1 docking peptide (human); PPVKRRLDFETDH; partner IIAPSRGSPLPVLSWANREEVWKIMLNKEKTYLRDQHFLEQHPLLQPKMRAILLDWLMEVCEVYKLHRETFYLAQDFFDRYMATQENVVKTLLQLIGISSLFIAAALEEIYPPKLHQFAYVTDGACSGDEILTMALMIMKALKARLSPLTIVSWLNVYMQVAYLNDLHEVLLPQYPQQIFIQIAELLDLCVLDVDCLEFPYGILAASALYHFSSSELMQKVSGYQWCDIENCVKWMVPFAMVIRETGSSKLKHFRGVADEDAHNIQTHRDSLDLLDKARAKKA
Change | normalised enrichment score
PPVKRRLDFHTDH [E10H] | 6.18
PPVKCRLDFETDH [R5C] | 0.745
PPVKRRLDYETDH [F9Y] | 3.45
PPVKRRLKFETDH [D8K] | 6.26
PPVKRRLDFEGDH [T11G] | 6.32
PPVKRLLDFETDH [R6L] | 3.34
PPVKDRLDFETDH [R5D] | -0.00345
PFVKRRLDFETDH [P2F] | 5.88

Mixed results
Substance | target | test | test system | conditions | scale | measurement | value
PhoQ, residues 284 288 289 292 302 303 SASVAL | PhoP, residues 12 14 15 18 19 NQFFI (Escherichia coli, UniProt P23836) | Sort-seq, refers to: YFP reporter | E. coli | PhoQ-PhoP variant library, added: 10 µM Mg2+ | reference: high Mg2+ state, higher = stronger signaling | fold induction | 8.89
